# Measured values pooled from the literature.
# Numbered parts are unrelated; each lists some results of a single study. Changes are numbered by the printed parent chain.

# Block 1
# Target: CCND2, cyclin fold, Cln2 fusion (human)
# Technique: yeast growth competition, sequencing
# Matrix: yeast
# Notes: strong parent motif
# Baseline: not given
# Reading: higher = stronger binding
# Starting sequence: PKN2 docking peptide (human); VSAVRKLDFSDTM; partner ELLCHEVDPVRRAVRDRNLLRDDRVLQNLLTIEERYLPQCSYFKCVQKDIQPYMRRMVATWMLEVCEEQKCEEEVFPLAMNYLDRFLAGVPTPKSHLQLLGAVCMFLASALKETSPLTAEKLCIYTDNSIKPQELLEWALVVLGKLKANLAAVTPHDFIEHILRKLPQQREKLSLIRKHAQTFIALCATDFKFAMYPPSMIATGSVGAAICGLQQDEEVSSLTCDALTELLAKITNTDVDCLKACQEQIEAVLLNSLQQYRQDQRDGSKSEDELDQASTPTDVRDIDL
Variant,normalised enrichment score
S10V,2.03
A3Y,0.00276
D11I,3.16
D11E,3.57
S10E,3.02
F9Q,-0.153
F9D,0.0459
V4T,1.32
K6R,3.92
D11W,2.15
A3S,1.33
L7G,-0.196
S2V,1.33
A3N,0.414
D8F,0.274
F9L,0.217
R5H,0.29
V4D,0.168
T12Q,3.37

# Block 2
# Target: ABI1, truncated, D143A, DHFR fusion (Arabidopsis thaliana)
# Technique: DHFR PCA, deep sequencing
# Matrix: yeast
# Notes: methotrexate growth selection, single substitutions
# Together with: (+)-ABA 1.4 µM
# Baseline: wild-type fitted maximum
# Reading: higher = stronger binding
# Starting sequence: PYL1, truncated, DHFR fusion (Arabidopsis thaliana); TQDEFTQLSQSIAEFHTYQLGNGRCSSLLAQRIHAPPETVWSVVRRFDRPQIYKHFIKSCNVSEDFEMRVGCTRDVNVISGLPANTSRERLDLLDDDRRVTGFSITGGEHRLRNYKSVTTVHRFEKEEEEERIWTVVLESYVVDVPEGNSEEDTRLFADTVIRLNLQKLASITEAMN
Variant,relative binding score [%]
F66Q,40.4
R74Y,-3.69
E67W,11.1
V100L,11.3
A158V,87
S87G,-6.85
F56D,-2.62
V76E,-6.72
E129D,69.9
N114T,0.95
E67F,22.7

# Block 3
# Target: Fragile X messenger ribonucleoprotein 1, C-terminal low-complexity region (Fmr1, Mus musculus, UniProt P35922)
# Technique: RNA Bind-n-Seq
# Molecule type: RNA
# Matrix: in vitro
# Tested at: 200 nM
# Notes: whole 134-nt RNA, ends assumed
# Together with: 150 mM LiCl
# Baseline: input library
# Reading: higher = stronger binding
# Each molecule: 7-deaza-guanosine replaces G
Oligonucleotide,log2 enrichment
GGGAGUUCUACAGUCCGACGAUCGCAGGAAGUAAAAACAGAUGGAAAUGCUUCGGAUAGUGGCAGGGGUGGGGGUUGCUAAGGAAAGGGUGGGAUGGGAGUGGGUAAAGAGUUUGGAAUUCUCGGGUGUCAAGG,1.25
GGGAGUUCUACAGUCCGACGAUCCCAACUCCUAUAAUUCCCUAUCUUUUAGUUUUAGUUGCAGAAACAUUUUGUGGUCAUUAAGCAUUGGGUGGGUAAAUUCAACCACUGUAAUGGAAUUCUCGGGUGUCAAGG,1.16
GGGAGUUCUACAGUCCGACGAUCAGUCCUGUGCUACACAUCGUAUGUACCGAAUCGGGGCCCCCGGCCCCCGGCCCCCGGGAAAGUAUUAUGUUACGCCGUUCGGAUCUGCACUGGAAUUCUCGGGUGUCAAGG,-2.25
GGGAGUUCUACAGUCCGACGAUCGUCCUGUGCUACACAUCGUAUGUACCGAAUCGGGAAAAAGGAAAAAGGGAAAAAGGGGAAAGUAUUAUGUUACGCCGUUCGGAUCUGCACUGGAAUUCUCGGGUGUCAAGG,0.295
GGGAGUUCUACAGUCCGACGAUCUUGGCUCGAGAGAUUGAAUCAAGCCCCCAGUACCGCCUACGGAUCGCCAUGGAGAACGACGAUGGGCGCACUGAAGAGGAGAAGCACAGUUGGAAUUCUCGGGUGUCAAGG,-0.859
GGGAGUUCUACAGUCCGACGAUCCAAGUCCUGUGCUACACAUCGUAUGUACCGAAUCGGGAAAGGGGAAAGGGAAAGGAAAGUAUUAUGUUACGCCGUUCGGAUCUGCACUUCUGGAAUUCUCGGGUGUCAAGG,-0.432
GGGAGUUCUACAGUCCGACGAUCUCAAGUCCUGUGCUACACAUCGUAUGUACCGAAUCGGGGCCGGCCGGGGCCGGGAAAGUAUUAUGUUACGCCGUUCGGAUCUGCACUUCCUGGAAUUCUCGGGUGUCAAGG,0.00651
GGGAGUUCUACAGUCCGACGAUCCAAGUCCUGUGCUACACAUCGUAUGUACCGAAUCGGGAAAAAGGGUGGGAAAGGGAAAGUAUUAUGUUACGCCGUUCGGAUCUGCACUUCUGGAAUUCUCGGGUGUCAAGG,-0.68

# Block 4
# Target: RING finger protein unkempt homolog, zinc fingers 1-6, GST-SBP tag (UNK, Homo sapiens, UniProt Q9C0B0, residues 30-357)
# UniProt Q9C0B0, sequence (30-357, looked up): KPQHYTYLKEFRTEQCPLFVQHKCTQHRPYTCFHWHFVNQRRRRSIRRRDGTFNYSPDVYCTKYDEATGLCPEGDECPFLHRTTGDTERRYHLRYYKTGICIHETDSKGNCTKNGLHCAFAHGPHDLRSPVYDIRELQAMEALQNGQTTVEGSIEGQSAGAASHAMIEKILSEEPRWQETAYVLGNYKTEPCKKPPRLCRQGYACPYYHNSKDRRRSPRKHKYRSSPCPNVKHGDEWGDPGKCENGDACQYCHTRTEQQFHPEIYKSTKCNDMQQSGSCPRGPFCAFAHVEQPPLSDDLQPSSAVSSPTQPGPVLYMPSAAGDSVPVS
# Technique: RNA Bind-n-Seq
# Molecule type: RNA
# Matrix: in vitro
# Tested at: not given
# Notes: RNA with constant flanks, human and mouse sites, ends assumed
# Baseline: input RNA pool
# Reading: higher = stronger binding
Oligonucleotide,bound/input enrichment
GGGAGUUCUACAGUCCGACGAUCGUUGGAGAUACUCAGGUGGUGGUUUUUAAGCAUGAAAAGGAAGAUGGCGCCAUUUCUACCAUAGUACUUCGAGGCUCUACAGACAAUCUGAUGGAUGACAUAGAAAGGGCAGUAGACGAUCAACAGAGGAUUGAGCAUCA,0.857 ratio
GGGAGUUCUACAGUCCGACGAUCUUGUCCCCAGGUGGGGGGAAGCAGGGGAGAGAAAAUGGUAGCCAUUUUUACAUUGUUUUGUAUAGUAUUUAUUGAUUCAGGAAACAAACACAAAAUUCUGAAUAAAAUGACUUGGAAACUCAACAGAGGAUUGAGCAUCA,1.17 ratio
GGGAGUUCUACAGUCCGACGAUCUGUUUGAACAGCAAAGAAGGACAUUUGCUACGUACGGCUAUGCACUGGACCCUUCGUUAGAUAAUCAUCAGGUGUCUGCUAAGUAUAUUGGCUCUGUGGAAGAAGCGGAGAAGAACCAAGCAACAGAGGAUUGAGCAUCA,0.152 ratio
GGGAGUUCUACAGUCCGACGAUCUUCAAGACGGAACUGCUAUGACUGGCCUAUUCAAGGCUUCAUAUUUUUAUACAGACUAUUUCACAGACCAUAGAUUUAUUUUAAAAGGGAAAAUCUCACACAUAAUUAAGCAGUGGAAAACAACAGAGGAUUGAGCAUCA,5.49 ratio
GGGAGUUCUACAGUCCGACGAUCAAACAAUUACUUUAUGAUUUCCCCUGGACAAAUGUUGGAAAAUUGGUGUUUGUGGGUAAGAAAUUUGAGAUUUUGCCAGAUGGCUUGCCUUCUGCCCGGAAGCUCAUAUACUACACGGGGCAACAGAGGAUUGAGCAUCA,0.201 ratio
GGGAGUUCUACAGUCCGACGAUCCAUUGUAUGUUGAUGAGUUGAUUAAGUCUAACAGAUUCAUCAAGACUCCAUUGCUUUAUUAUAGAGACAUUUGAAAAUAUCCAUUAAUGUGAAUAUCACCUGAAUUCAGUCUGUUUGGUGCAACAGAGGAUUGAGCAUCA,2.83 ratio

# Some of these lines once more (block 1):
Variant,normalised enrichment score
S2V,1.33
L7G,-0.196
F9D,0.0459
